Published values of several laboratories.
Compare with care: the assays were run in different laboratories. ± marks the error that the study gave.
Organism: Acinetobacter baumannii

SMILES | test | system | setting | scale | quantity | result
CC1(C)[C@H](NC(=O)/C(=N\OC2(C(=O)O)CC2)c2nsc(N)n2)C(=O)N1OS(=O)(=O)O | agar dilution | ATCC 19606 |  |  | MIC | 16 µg/mL
c1ccc(CSc2nc3ccccc3cc2CNCCC2CCN(C3CCCC3)CC2)cc1 | NADH-driven proton pumping, ACMA quenching | inverted membrane vesicles | 32 µg/mL |  | inhibition | 80%
C#CCOc1ccc(CN[C@@]2(C)C[C@H](O[C@H]3[C@H](Oc4c5cc6cc4Oc4ccc(cc4Cl)[C@@H](O)[C@@H](NC(=O)[C@@H](CC(C)C)NC)C(=O)N[C@@H](CC(N)=O)C(=O)N[C@H]6C(=O)N[C@H]4C(=O)N[C@H](C(=O)N[C@H](C(=O)N[C@@H](CCCNC(=N)N)C(N)=O)c6cc(O)cc(O)c6-c6cc4ccc6O)[C@H](O)c4ccc(c(Cl)c4)O5)O[C@H](CO)[C@@H](O)[C@@H]3O)O[C@@H](C)[C@H]2O)cc1OC | broth microdilution | BAA-747, cation-adjusted Mueller-Hinton broth | 18 to 20 h, 37 °C, 0.002% polysorbate 80 |  | MIC | 128 µg/mL
CC(C)C[C@H](NC(=O)[C@H](Cc1ccc(O)cc1)NC(=O)[C@@H]1CCCN1C(=O)[C@H](CCCNC(=N)N)NC(=O)[C@@H]1CCCN1C(=O)[C@H](CCCCN)NC(=O)[C@H](CC(=O)O)NC(=O)[C@@H]1CCCN1C(=O)[C@H](CCCNC(=N)N)NC(=O)C1(N)CCCCC1)C(=O)N1CCC[C@H]1C(=O)N[C@@H](CCCNC(=N)N)C(=O)N1CCC[C@H]1C(=O)N[C@@H](CCCNC(=N)N)C(=O)N1CCC[C@H]1C(=O)N1CCC[C@H]1C(=O)N[C@@H](CCCNC(=N)N)C(=O)N1CCC[C@H]1C(=O)N[C@H](C(=O)N[C@@H](CCCNC(=N)N)C(=O)N[C@@H](CSc1c(F)c(F)c(SC[C@H](NC(=O)[C@H](CCCNC(=N)N)NC(=O)[C@@H](NC(=O)[C@@H]2CCCN2C(=O)[C@H](CCCNC(=N)N)NC(=O)[C@@H]2CCCN2C(=O)[C@@H]2CCCN2C(=O)[C@H](CCCNC(=N)N)NC(=O)[C@@H]2CCCN2C(=O)[C@H](CCCNC(=N)N)NC(=O)[C@@H]2CCCN2C(=O)[C@H](CC(C)C)NC(=O)[C@H](Cc2ccc(O)cc2)NC(=O)[C@@H]2CCCN2C(=O)[C@H](CCCNC(=N)N)NC(=O)[C@@H]2CCCN2C(=O)[C@H](CCCCN)NC(=O)[C@H](CC(=O)O)NC(=O)[C@@H]2CCCN2C(=O)[C@H](CCCNC(=N)N)NC(=O)C2(N)CCCCC2)C(C)C)C(=O)NN)c(F)c1F)C(=O)NN)C(C)C | membrane disruption, propidium iodide uptake | 19606 | 90 min, 37 °C |  | MDC | 10.6 ± 0.5 µg/mL
CCN1CCC(CCNCc2cc3ccccc3nc2SCc2ccccc2)CC1 | NADH-driven proton pumping, ACMA quenching | inverted membrane vesicles | 32 µg/mL |  | inhibition | 85%
COc1ccc2ccc(O)c(/C=N/[C@H]3CCCC[C@H]3/N=C/c3c(O)cccc3OC)c2c1 | bacterial growth, broth microdilution | carbapenem-resistant clinical isolate |  |  | MIC | > 40 µM
Cc1ccnc(-c2cc(C(=O)NCCCCCC(=O)N[C@@H](CCCNC(=N)N)C(=O)N[C@@H](CCCNC(=N)N)C(=O)N[C@@H](Cc3c[nH]c4ccccc34)C(=O)N[C@@H](Cc3c[nH]c4ccccc34)C(=O)N[C@@H](CCCNC(=N)N)C(=O)N[C@@H](Cc3c[nH]c4ccccc34)C(=O)N[C@@H](Cc3c[nH]c4ccccc34)C(=O)N[C@@H](CCCNC(=N)N)C(=O)N[C@@H](CCCNC(=N)N)C(N)=O)ccn2)c1 (stereo in doubt) | colony counting | resistant | concentration not given, light irradiation | reference: non-irradiated | log10 CFU reduction | no effect
CC(C)C[C@H](NC(=O)[C@H](Cc1ccc(O)cc1)NC(=O)[C@@H]1CCCN1C(=O)[C@H](CCCNC(=N)N)NC(=O)[C@@H]1CCCN1C(=O)[C@H](CCCCN)NC(=O)[C@H](CC(=O)O)NC(=O)[C@@H]1CCCN1C(=O)[C@H](CCCNC(=N)N)NC(=O)C1(N)CCCCC1)C(=O)N1CCC[C@H]1C(=O)N[C@@H](CCCNC(=N)N)C(=O)N1CCC[C@H]1C(=O)N[C@@H](CCCNC(=N)N)C(=O)N1CCC[C@H]1C(=O)N1CCC[C@H]1C(=O)N[C@@H](CCCNC(=N)N)C(=O)N1CCC[C@H]1C(=O)N[C@H](C(=O)N[C@@H](CCCNC(=N)N)C(=O)N[C@@H](CSc1c(F)c(F)c(-c2c(F)c(F)c(SC[C@H](NC(=O)[C@H](CCCNC(=N)N)NC(=O)[C@@H](NC(=O)[C@@H]3CCCN3C(=O)[C@H](CCCNC(=N)N)NC(=O)[C@@H]3CCCN3C(=O)[C@@H]3CCCN3C(=O)[C@H](CCCNC(=N)N)NC(=O)[C@@H]3CCCN3C(=O)[C@H](CCCNC(=N)N)NC(=O)[C@@H]3CCCN3C(=O)[C@H](CC(C)C)NC(=O)[C@H](Cc3ccc(O)cc3)NC(=O)[C@@H]3CCCN3C(=O)[C@H](CCCNC(=N)N)NC(=O)[C@@H]3CCCN3C(=O)[C@H](CCCCN)NC(=O)[C@H](CC(=O)O)NC(=O)[C@@H]3CCCN3C(=O)[C@H](CCCNC(=N)N)NC(=O)C3(N)CCCCC3)C(C)C)C(=O)NN)c(F)c2F)c(F)c1F)C(=O)NN)C(C)C | membrane disruption, propidium iodide uptake | 19606 | 90 min, 37 °C |  | MDC | 4.5 ± 0.1 µg/mL
CC[C@H](C)[C@@H]1NC(=O)[C@H](CCC(=O)O)NC(=O)[C@@H]2CSSC[C@@H]3NC(=O)[C@H](Cc4ccc(O)cc4)NC(=O)[C@@H](NC(=O)[C@@H](NC(=O)[C@H](C)N)[C@@H](C)O)CSSC[C@@H](C(=O)N[C@@H](CCCNC(=N)N)C(=O)O)NC(=O)[C@H](CSSC[C@H](NC(=O)[C@H](CCCNC(=N)N)NC(=O)CNC(=O)[C@H]([C@@H](C)O)NC(=O)[C@H](CCCNC(=N)N)NC3=O)C(=O)N[C@@H](C)C(=O)N[C@@H]([C@@H](C)O)C(=O)N[C@@H](CCCNC(=N)N)C(=O)N[C@@H](CCC(=O)O)C(=O)N[C@@H](CO)C(=O)N[C@@H](CC(C)C)C(=O)N[C@@H](CO)C(=O)NCC(=O)N[C@@H](C(C)C)C(=O)N2)NC(=O)[C@H](CC(C)C)NC(=O)[C@H](CCCNC(=N)N)NC(=O)[C@H](Cc2ccc(O)cc2)NC(=O)[C@H](CC(C)C)NC(=O)[C@H](CCCNC(=N)N)NC(=O)CNC(=O)[C@H](CO)NC1=O | broth turbidity |  |  |  | MIC | 22.4 µg/mL

Some of these lines once more:
SMILES | test | system | setting | scale | quantity | result
CC1(C)[C@H](NC(=O)/C(=N\OC2(C(=O)O)CC2)c2nsc(N)n2)C(=O)N1OS(=O)(=O)O | agar dilution | ATCC 19606 |  |  | MIC | 16 µg/mL
